Assay results from different studies.
Lines come from different studies, so protocols differ. Several values in a cell are separate wells, animals, samples, runs or records. ± marks the error that the study gave.
CASP10: Caspase-10 (CASP10, Homo sapiens, UniProt Q92851)
DCPS: m7GpppX diphosphatase (DCPS, Homo sapiens, UniProt Q96C86)
TARDBP aggregated: TAR DNA-binding protein 43, aggregated (TARDBP, Homo sapiens, UniProt Q13148)
CASP8: Caspase-8 (CASP8, Homo sapiens, UniProt Q14790)
GSDMD: Gasdermin-D (GSDMD, Homo sapiens, UniProt P57764)

SMILES = CC(=O)N[C@@H](CC(=O)O)C(=O)N[C@@H](CCC(=O)O)C(=O)N[C@H](C(=O)N[C@@H](CC(=O)O)C(=O)COC(=O)c1c(C)cccc1C)C(C)C; target = CASP10; assay = enzyme activity, inhibitor; quantity = kinact/KI; value = 183000 M⁻¹ s⁻¹
SMILES = CO[C@@H]1[C@H](O)[C@@H](COP(=O)(O)OP(=O)([O-])C(F)(F)P(=O)(O)OP(=O)(O)OC[C@H]2O[C@@H](n3cnc4c(=O)[nH]c(N)nc43)[C@H](O)[C@@H]2O)O[C@H]1n1c[n+](C)c2c(O)nc(N)nc21; target = DCPS; assay = substrate, HPLC; setting = concentration not given, 30 min; quantity = hydrolysis; value = 4.7 ± 0.2%
SMILES = CCN(CC)C(=O)c1ccc(O)c(OC)c1; target = Heat shock protein HSP 90-alpha, N-terminal domain (HSP90AA1, Homo sapiens, UniProt P07900); assay = binding, ligand-observed NMR titration; setting = 9.59 µM, ligand to protein ratio 707; quantity = bound ligand fraction; value = 0.13
SMILES = Fc1ccc(Nc2nc(NC3CCCCC3)c3ccccc3n2)cc1F; target = ADRB2 (Homo sapiens, UniProt P07550, Q170L); assay = β-arrestin2 recruitment, antagonist, BRET; setting = mutant Q170L; scale = relative to: isoprenaline maximal response; quantity = maximal inhibition; value = -5.4%
SMILES = N=C(N)NCCS(=O)(=O)O; target = SLC6A6 (Homo sapiens, UniProt P31641, Y138A); assay = binding, microscale thermophoresis; setting = 500 µM, room temperature, added: 50 nM labelled protein; scale = higher = more binding; quantity = normalised MST signal; value = -0.0173
SMILES = O=C1c2sc(-c3ccc(N4CCC(F)C4)nc3F)nc2CCN1c1cccnc1 (centres unmarked); target = TARDBP aggregated; assay = radioligand binding; system = human, FTLD-TDP type A insoluble extract; setting = 1.29 nM; quantity = specific binding; value = 0.449 nM and 0.23 nM
SMILES = O=C(O[C@@H]1Cc2c(O)cc(O)cc2O[C@@H]1c1cc(O)c(O)c(O)c1)c1cc(O)c(O)c(O)c1; target = Microtubule-associated protein tau, AD brain-derived fibrils (MAPT, Homo sapiens, UniProt P10636); assay = tau fibril disaggregation, negative-stain EM; system = AD brain tau fibrils; setting = concentration not given, 48 h; quantity = reduction of fibril density; value = 70 to 80%
SMILES = CC1(C)C[C@@H](Nc2cccc(-c3sc(C(=O)O)c(OCC(=O)O)c3Cl)c2)CCN1S(=O)(=O)Cc1cccc(NC(=O)CN2CCC(c3ccc4c(c3)oc(=O)n4C3CCC(=O)NC3=O)CC2)c1 (some centres unmarked); target = Tyrosine-protein phosphatase non-receptor type 1 (Mus musculus, UniProt P35821); assay = degrader, Western blot; system = B16-F10; setting = 0.1 µM; quantity = remaining protein; value = 45.9% and 46.2%
SMILES = COc1ccc(C(=O)c2c(C(=O)NCCCN(C)C)oc3ccc(Cl)cc3c2=O)cc1OC; target = GHSR (Homo sapiens, UniProt Q92847); assay = Gαq dissociation, TRUPATH BRET; system = HEK293T; setting = shared parameter fit; quantity = Hill slope; value = 0.66
SMILES = CC[C@H](C)[C@@H]1NC(=O)[C@H](Cc2ccccc2)NC(=O)[C@H](CCC(=O)O)NC(=O)[C@H](CCCNC(=N)N)NC(=O)CNC(=O)[C@@H](NC(=O)[C@H](CC(C)C)NC(=O)[C@H](CCCNC(=N)N)NC(=O)[C@@H](NC(=O)CNC(=O)[C@H](Cc2ccc(O)cc2)NC(=O)[C@@H]2CCCN2C(=O)[C@H](C)NC(=O)[C@H](C)NC(=O)[C@@H](N)CCCNC(=N)N)C(C)C)CSSC[C@@H]2NC(=O)[C@@H](NC(=O)[C@H](CO)NC(=O)[C@H](CO)NC(=O)[C@H](CO)NC(=O)[C@H](CC(C)C)NC(=O)CNC(=O)[C@H](C)NC(=O)[C@H](CC(C)C)NC(=O)[C@@H](NC(=O)[C@@H](N)CC(=O)O)C(C)C)CSSC[C@H](NC(=O)CNC(=O)[C@H](Cc3c[nH]c4ccccc34)NC(=O)[C@H](CCCCN)NC2=O)C(=O)N[C@@H](CO)C(=O)N[C@@H](CCCCN)C(=O)N[C@@H](CO)C(=O)N[C@@H](CCC(=O)O)C(=O)N[C@@H]([C@@H](C)CC)C(=O)N[C@@H](CO)C(=O)N[C@@H](CO)C(=O)N[C@@H](CC(C)C)C(=O)N[C@H](C(=O)O)CSSC[C@@H](C(=O)NCC(=O)NCC(=O)N[C@@H](CO)C(=O)N[C@@H](CCCNC(=N)N)C(=O)N[C@@H](Cc2c[nH]c3ccccc23)C(=O)O)NC(=O)[C@H]([C@@H](C)O)NC(=O)[C@H](Cc2ccccc2)NC(=O)[C@H]([C@@H](C)CC)NC(=O)[C@H](C(C)C)NC(=O)[C@H](C)NC(=O)[C@H](CCCNC(=N)N)NC1=O; target = RXFP4 (Homo sapiens, UniProt Q8TDU9, F291A); setting = F291A mutant; scale = relative to: wild type; quantity = change in Emax; value = -47.1% and -50.2% and -42.2%
SMILES = CC(=O)N[C@@H](CC(C)C)C(=O)N[C@@H](CCC(=O)O)C(=O)N[C@@H](Cc1c[nH]cn1)C(=O)N[C@@H](CC(=O)O)C(=O)COC(=O)c1c(C)cccc1C; target = CASP8; assay = enzyme activity, inhibitor; quantity = kinact/KI; value = 1.56e+06 M⁻¹ s⁻¹
SMILES = CCCCCC(O)/C=C/C=O (centres unmarked); target = Enoyl-CoA delta isomerase 2 (ECI2, Homo sapiens, UniProt O75521); assay = competitive isoTOP-ABPP; system = proteome, soluble, MDA-MB-231; setting = 100 µM, 60 min, added: iodoacetamide probe; scale = relative to: DMSO over compound-treated, higher = stronger cysteine blockade; quantity = isoTOP-ABPP competition ratio; value = 1.7
SMILES = C#CCOC(=O)[C@@]1(C)C=C(C(=O)OC(C)(C)C)C(=O)CC1; target = MAPK8 (Homo sapiens, UniProt P45983); assay = enzyme activity, D-SENSOR; setting = 44.44 µM, single replicate; quantity = normalized kinase activity; value = 0.753 and 0.78 and 0.678
SMILES = CCCCCCCC/C=C\CCCCCCCC(=O)NCCO; target = Trpv1 (Mus musculus, UniProt Q704Y3, T557S); assay = ion current, agonist, whole-cell patch clamp; setting = T557S; quantity = Hill coefficient; value = 2.61 ± 0.5
SMILES = N#CN1CC[C@H](C(=O)Nc2nc3c(s2)CN(C(=O)Cn2cc(COCCOCCOCCOCCNC(=O)CCCC[C@@H]4SC[C@@H]5NC(=O)N[C@@H]54)nn2)CC3)C1; target = PCMT1 (Homo sapiens, UniProt P22061); assay = probe binding, affinity probe, neutravidin pull-down LC-MS/MS; system = HEK293T, cell lysate; setting = 5 µM, 1 h, single replicate, unit not given; scale = higher = more pulled down; quantity = iBAQ abundance; value = 1.12e+08 and 2.6e+08 and 4.99e+08
SMILES = Cc1cc(C)c2c(Cn3ccnc3)cc(=O)oc2c1; target = ADRA1A (Homo sapiens, UniProt P35348); assay = calcium mobilization, agonist; system = COS-7; setting = 500 µM; scale = relative to: 3 µM ionomycin; quantity = agonist activity; value = 1.79 ± 1.12%
SMILES = C[C@](C(=O)NC1CCOCC1)(c1cncnc1)N(C(=O)[C@H](F)Cl)c1ccc(OC(F)(F)Cl)cc1; target = PROC (Homo sapiens, UniProt P04070); assay = enzyme activity, inhibitor; setting = 10 µM; quantity = remaining activity; value = 99.2%
SMILES = O=C1c2sc(-c3ccc(N4CCC(CO)CC4)nc3F)nc2CCN1c1cccnc1; target = TARDBP aggregated; assay = binding, surface plasmon resonance; system = brain-derived TDP-43 aggregates; setting = 1.17 nM; quantity = SPR response; value = 1.74 RU
SMILES = Cc1ccc(C(=O)Nc2ccc(CN3CCN(C)CC3)c(C(F)(F)F)c2)cc1C#Cc1cnc2cccnn12; target = STK32B (Homo sapiens, UniProt Q9NY57); assay = target engagement, NanoBRET; system = human cells; quantity = upper asymptote; value = 1360
SMILES = CCN(CC)C(CO)c1cccc2c(C)c(C)oc12 (centres unmarked); target = LPAR1 (Homo sapiens, UniProt Q92633, W271F); assay = G-protein dissociation, agonist, NanoBiT; system = HEK-293T; setting = 100 pM, W271F mutant; scale = relative to: baseline luminescence; quantity = fold change; value = 1 and 0.993 and 1.02 and 0.992 and 0.981
SMILES = CC(C)Oc1cc(Cl)ccc1CNc1cc(-c2ccccc2)nc2ncnn12; target = GPR3 (Homo sapiens, UniProt P46089, V196W); assay = cAMP level, cAMP GloSensor; setting = 300 nM; scale = higher = more cAMP; quantity = cAMP luminescence; value = 32600 a.u. and 33200 a.u. and 51200 a.u. and 44900 a.u.
SMILES = CC(=O)N[C@@H](CC(=O)O)C(=O)N[C@@H](CC(C)C)C(=O)N[C@@H](C)C(=O)N[C@@H](CC(=O)O)C(=O)COC(=O)c1c(C)cccc1C; target = CASP10; assay = enzyme activity, inhibitor; quantity = kinact/KI; value = 187000 M⁻¹ s⁻¹
SMILES = C[n+]1cn([C@@H]2O[C@H](COP(=O)(O)OP(=O)([O-])C(F)(F)P(=O)(O)O)[C@@H](O)[C@H]2O)c2nc(N)nc(O)c21; target = DCPS; assay = substrate, HPLC; setting = concentration not given, 30 min; quantity = hydrolysis; value = 4 ± 0.8%
SMILES = CC[C@H](C)[C@H](NC(=O)[C@@H](NC(=O)[C@H](CCCCN)NC(=O)[C@@H](N)[C@@H](C)O)C(C)C)C(=O)N[C@@H](CC(C)C)C(=O)N[C@@H](Cc1c[nH]cn1)C(N)=O; target = Microtubule-associated protein tau, PHF6* peptide (MAPT, Homo sapiens, UniProt P10636); assay = fibril formation, ThT fluorescence; setting = 0.1-fold of peptide, pH 7.4, added: Ac-PHF6* 25 µM, heparin; scale = relative to: untreated; quantity = ThT fluorescence; value = 108 ± 2%
SMILES = O=c1c(-c2ccccc2C(F)(F)F)coc2cc(O)ccc12; target = HSD3B1 (Homo sapiens, UniProt P14060); assay = [3H]-DHEA conversion; system = LNCaP; setting = 0.1 µM, normalized to protein, unit not given; scale = relative to: vehicle; quantity = DHEA metabolism; value = 0
SMILES = CCCCCCCCCCCCC/C=C/C=O; target = GSDMD; assay = competitive isoTOP-ABPP, item: GSDMDC1 cysteine peptide; system = Ramos soluble proteome; setting = 100 µM, added: iodoacetamide probe; scale = relative to: DMSO over compound-treated, higher = stronger cysteine blockade; quantity = isoTOP-ABPP competition ratio; value = 1
SMILES = CC(=O)N[C@H](C(=O)N[C@@H](CCCC(=O)O)C(=O)N[C@@H](CCC1CCCCC1)C(=O)N[C@@H](CC(=O)O)C(=O)COC(=O)c1c(C)cccc1C)C(C)(C)C; target = CASP8; assay = enzyme activity, inhibitor; quantity = kinact/KI; value = 1.43e+06 M⁻¹ s⁻¹
SMILES = Cc1ccc(-n2nc(NC(=O)COc3ccc(Cl)cc3Cl)c3cccnc32)cc1Cl; target = Kir3.1/Kir3.4 (Homo sapiens, UniProt P48544+P48549); assay = activator, thallium flux; system = HEK293; setting = concentration not given; quantity = activity; value = inactive
SMILES = C=CS(=O)(=O)c1ccc(Nc2nc(OCC3CCCCC3)c3nc[nH]c3n2)cc1; target = GSDMD; assay = thermal stability, DSF; setting = 10 µM; quantity = ΔTm; value = 5.7 °C

Repeated from above:
SMILES = CCCCCCCCCCCCC/C=C/C=O; target = GSDMD; assay = competitive isoTOP-ABPP, item: GSDMDC1 cysteine peptide; system = Ramos soluble proteome; setting = 100 µM, added: iodoacetamide probe; scale = relative to: DMSO over compound-treated, higher = stronger cysteine blockade; quantity = isoTOP-ABPP competition ratio; value = 1
SMILES = CC(=O)N[C@H](C(=O)N[C@@H](CCCC(=O)O)C(=O)N[C@@H](CCC1CCCCC1)C(=O)N[C@@H](CC(=O)O)C(=O)COC(=O)c1c(C)cccc1C)C(C)(C)C; target = CASP8; assay = enzyme activity, inhibitor; quantity = kinact/KI; value = 1.43e+06 M⁻¹ s⁻¹
